# Measurements collected from several papers.
# Every numbered part comes from another study and shows a few of its results, in no order.

# Study 1
# Target: RNA binding protein fox-1 homolog 2, RRM domain, GST-SBP tag (RBFOX2, Homo sapiens, UniProt O43251-10, residues 100-194)
# Technique: RNA Bind-n-Seq
# Molecule type: RNA
# Medium: in vitro
# Tested at: 365 nM
# Notes: natural RNA segment, single round, ends assumed
# Relative to: no-protein control
# Reading: higher = stronger binding
# Shared flanks, not repeated: GGGAGUUCUACAGUCCGACGAUC … UGGAAUUCUCGGGUGCCAA
# Residues (chain): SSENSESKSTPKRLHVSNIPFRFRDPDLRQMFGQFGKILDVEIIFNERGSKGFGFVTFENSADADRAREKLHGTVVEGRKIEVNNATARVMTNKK
Sequence,RBNS enrichment (R)
UUCUACUGGAAUAGAAAUGAGUUUUAUCAUCUUUGAAAAAUAAUUCACUCUUGAAGUAAUAAACGUUAAAAAAAUGGGAUGCCUGCCUCUGUGACAGCCUUGUUUGCUGA,0.283
AGCCCAACCACUCGGUUUCCUUCGGAUUUUCCUCCCUUUGUUCGGGGUUUGGUUUGGCUCCUCUGUGUGUGUCCGUAUCUUGUUCGGUGUCCUCGAGGUUGAGCUUCACU,0.491
GGGAAGCUACACUUCCAAGUUGCUGUGGCUUCACUGCUAAGAAGAGAGUGAGUGAUGGUCUUGGAAAGGAGCUGGGGUGUGGAUGCUAAAGCCCCCAUUCAUACAAACAA,2.08
AACACCUCCCCUCCCCCUCACUGUAGCCUUCGGCAACUGCGCCAAUCCCUUUAUACAAAGAAAAUAAAAGUAAGGCAUAUAAAUUUCCUCCAGCAAGCAAAUCUUGUGGG,0.609
ACUUGUGUCGUGGGGGAAAACAUAAGGUCAUUUUCUCCCUCUACUCACAAUACUAAAGGGAAAAAAUGGAUUCAAAGCUAGGAUUUCAGGGCCCAGCAGUGUUCCUCCAU,0.334
CUGGAGCCACCGCCUCGCGGGUGCAGCAGCACAGCAGGCACGGUUCGGGGAGGGAUUCGGCAUGGCCGCGGGGUACCUUCCCAGGCCAGGGCCCUGGAGGCAACUGGCAC,0.221
UGCUUUAGCUGUAGAGCUGGGUAUACUGUUGAUCCAGCUGUCCGUCAGGGACUUGAUAACCUGAUGUUUGAUGUAGAUCCCUGCUGGGGAGUCCACAACUAUGAAUGUAU,0.892

# Study 2
# Molecule: HNRNPA1 (Homo sapiens, UniProt P09651)
# Technique: cross-linking MS
# Notes: hits only
partner,interaction screen
"MATR3 (Homo sapiens, UniProt P43243)",cross-linked
"HNRNPA3 (Homo sapiens, UniProt P51991)",cross-linked
"FUBP3 (Homo sapiens, UniProt Q96I24)",cross-linked
"HNRNPH1 (Homo sapiens, UniProt P31943)",cross-linked
"SFPQ (Homo sapiens, UniProt P23246)",cross-linked
"HNRNPD (Homo sapiens, UniProt Q14103)",cross-linked
"HNRNPL (Homo sapiens, UniProt P14866)",cross-linked
"NONO (Homo sapiens, UniProt Q15233)",cross-linked

# Study 3
# Target: Histone acetyltransferase KAT6A, winged helix 2, GST fusion (KAT6A, Homo sapiens, UniProt Q92794, residues 85-181)
# Technique: protein binding microarray
# Molecule type: double-stranded DNA, one strand shown
# Medium: in vitro
# Tested at: not given
# Notes: 8-mer, flanks averaged, mean of 2 arrays, mostly near background
# Relative to: not given
# Reading: higher = stronger binding
# Construct (chain): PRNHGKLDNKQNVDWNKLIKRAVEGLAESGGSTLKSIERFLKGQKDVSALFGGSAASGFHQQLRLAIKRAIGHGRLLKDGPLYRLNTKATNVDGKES
Sequence,E-score
ATACGAAT,0.0322
CCTTCAAG,-0.0181
CTAAGTAC,-0.0771
AGGTTAGA,-0.192
GCATTAGA,-0.00407
ATTCTCCG,-0.0693
ATAATGGC,0.0524

# Further values, each from its own experiment
Molecule,target,test,system,conditions,scale,measurement,result
"PhoQ, residues 284 288 289 292 302 303 AGGLSV","PhoP, residues 12 14 15 18 19 NQCAL (Escherichia coli, UniProt P23836)","Sort-seq, item: YFP reporter",E. coli,"PhoQ-PhoP variant library, together with: 10 µM Mg2+","relative to: high Mg2+ state, higher = stronger signaling",fold induction,4.22

# Some of these lines once more (study 1):
Sequence,RBNS enrichment (R)
ACUUGUGUCGUGGGGGAAAACAUAAGGUCAUUUUCUCCCUCUACUCACAAUACUAAAGGGAAAAAAUGGAUUCAAAGCUAGGAUUUCAGGGCCCAGCAGUGUUCCUCCAU,0.334
UGCUUUAGCUGUAGAGCUGGGUAUACUGUUGAUCCAGCUGUCCGUCAGGGACUUGAUAACCUGAUGUUUGAUGUAGAUCCCUGCUGGGGAGUCCACAACUAUGAAUGUAU,0.892
